Measured values collected from several papers.
“And” joins repeats or separate records; there may be more than shown. ± gives the spread as reported.

| Compound | test | system | conditions | scale | measurement | result |
| --- | --- | --- | --- | --- | --- | --- |
| N#Cc1ccc2c(-c3ccncc3)c(-c3ccc(F)cc3)nn2c1 | kinase binding, competitor, MIB/MS competition, measured: RTK1 | Candida albicans cell lysate | 100 nM | baseline: DMSO | log2 fold change | -0.262 |
| CNCc1cc(-c2ccccc2F)n(S(=O)(=O)c2cccnc2)c1 | esophageal lesions | rat reflux esophagitis model | oral, 2 mg/kg | – | inhibition | 96% |
| Cn1cc([C@H]2C[C@H]3CSC(N)=N[C@@]3(c3ccc(F)cc3F)CO2)cn1 | measured: Aβx-40 | wild-type mouse, brain | subcutaneous, 3 mg/kg, 9 h | – | brain Aβ40 level | 3.19 ng/g |
| Cn1cc(Nc2nccc(-c3ccc4c(c3)CN(C3COC3)CC[C@H]4NC(=O)c3cn(C(C)(C)C)nn3)n2)cn1 | measured: Endoplasmic Reticulum Stress Pathway | splenic B cells, Mus musculus | 30 mg/kg, with: IgD activation | baseline: vehicle, direction not given | pathway activation z-score | 0.378 |
| OC(CCN1CCCCC1)(c1ccccc1)C1CC2C=CC1C2 (stereo not drawn) | resting-state EEG | healthy elderly humans | oral, 4 mg, eyes open, LS mean | – | EEG power, gamma, Fz-Cz | 0.6 µV² |
| COc1ccc(-c2cncc(N[C@@H](C)c3cccc(NC(=O)c4cncc(C)c4)c3)n2)cc1OC | measured: rno-miR-374-5p | rat SU5416/hypoxia model, lung | dose not given, unit not given | baseline: SU5416/hypoxia vehicle | delta delta Ct | 0.317 |
| CCc1c(C)nc(-c2ccc(Cl)s2)nc1Nc1ccc(CC(=O)O)cc1 | – | C57BL/6J mice, high-fat diet, liver | intraperitoneal, 0.3 mg/kg daily, 60% fat diet 12 weeks, dosed last four | baseline: vehicle | triglyceride content | decreased |
| NC(=O)c1cnc2[nH]ccc2c1N[C@@H]1[C@@H]2CC3C[C@H]1C[C@@](O)(C3)C2 | flow cytometry | Japanese healthy men, blood | oral, 10 mg twice daily, 72 h after day 7 dose | baseline: baseline | CD4+ effector memory change | 0.42% |
| CS(=O)(=O)C1(CNCc2ccc(Cl)c3cccnc23)CC1 | von Frey test | mouse, spared nerve injury model | intrathecal, dose not given, 30 min, ipsilateral paw, 20% ethanol vehicle | baseline: vehicle | mechanical withdrawal threshold | no effect |
| CC(C)[C@H](C(=O)Nc1ccc(C(=O)NO)cc1)c1ccccc1 | volumetric MRI | human, right meningioma | dose not given, day 170 | – | tumour growth rate | -32.2 %/year |
| CN(C)C(=O)Oc1cccc([N+](C)(C)C)c1 | neuromuscular block reversal | rat | dose not given, 15 (unit not given), with: cisatracurium | baseline: T1 twitch | train-of-four ratio | 96.6 |
| COc1cc(-c2ccccc2)ncc1C(=O)Nc1ccc2c(=O)[nH]c(-c3ccc(C(C)(C)O)cc3)nc2c1 | RNA-seq GSEA, measured: HALLMARK_FATTY_ACID_METABOLISM | organoids, small intestinal, Apc Q1405X, mouse | dose not given, 3 days, wild-type organoids | baseline: DMSO, direction not given | normalized enrichment score | -1 |
| CN[C@@H]1COc2c(S(=O)(=O)NC(=O)Nc3c4c(cc5c3CCC5)CCC4)cnn2C1 | measured: IL-1β | human participants, whole blood ex vivo | 300 mg twice daily, multiple doses, 8 h, with: LPS/ATP | baseline: baseline | inhibition | 99% |
| COc1ccc2c(c1)CN(Cc1ccc(C(=O)O)cc1)CCS2 | – | exercised mdx mice | 10 mg/kg, 3 weeks | – | forelimb grip strength | 0.151 ± 0.004 kgf |
| CC(C)NCC(O)c1ccc(O)c(O)c1 (stereo not drawn) | – | ventricular cardiomyocytes, C57BL/6 mouse | dose not given, 0.452 s | – | sarcomere length | 1.69 µm |
| C=Cc1c(C)c2cc3nc(c(CC(=O)O)c4[nH]c(cc5nc(cc1[nH]2)C(C)=C5CC)c(C)c4C(=O)O)[C@@H](CCC(=O)O)[C@@H]3C | flow cytometry | mouse, 4T1 tumour-bearing | dose not given, 1 h | – | CD4+ T cells | 1.86% and 1.53% and 1.48% |
| N#Cc1ccc2c(c1)[C@H]1CCCN(C(=O)c3ccc4[nH]cnc4c3)[C@H]1C2 | measured: Triglycerides | human | 240 mg once daily, day 28, adjusted mean | baseline: placebo | change from baseline | -39.3 mg/dL |
| C=C1CC[C@H](OCCCNC(=O)CCOCCOCCOCCOCCOCCOCCOCCOCCOCCOCCOCCOCCOCCOCCOCCOCCOCCOCCOCCOCCOCCOCCOCCOCCOCCOCCOCCOCCOCCOCCOCCOCCOCCOCCOCCOCCNC(=O)CCN2C(=O)CC(SC[C@H](NC(=O)[C@H](CCCNC(=N)N)NC(=O)[C@@H]3CCCN3C(=O)[C@H](CCC(N)=O)NC(=O)[C@H](CC(C)C)NC(=O)[C@H](CCCCN)NC(=O)[C@H](C)NC(=O)[C@@H]3CCCN3C(=O)[C@@H]3CCCN3C(=O)[C@H](CCCCN)NC(=O)[C@H](CCCCN)NC(=O)[C@H](CO)NC(=O)[C@H](CCC(=O)O)NC(=O)[C@H](CCCCN)NC(=O)[C@H](CCCNC(=N)N)NC(=O)[C@H](CCC(N)=O)NC(=O)[C@H](CCC(N)=O)NC(=O)[C@@H](NC(=O)[C@H](CCCNC(=N)N)NC(=O)[C@H](CCC(N)=O)NC(=O)[C@H](Cc3c[nH]cn3)NC(=O)[C@H](CCC(=O)O)NC(=O)[C@@H]3CCCN3C(=O)[C@H](CO)NC(=O)[C@H](CC(C)C)NC(=O)[C@H](Cc3ccccc3)NC(=O)[C@H](CNC(=O)CCCCCCC)NC(=O)[C@H](CO)NC(=O)CN)C(C)C)C(=O)O)C2=O)C/C1=C/C=C1\CCC[C@]2(C)[C@@H]([C@H](C)CCCC(C)(C)O)CC[C@@H]12 (stereo partly drawn) | – | C57BL/6J mice, LLC tumour-induced cachexia | daily | baseline: pair-fed tumour-bearing vehicle | forelimb grip strength | decreased |

For quick reference, copied from above:
| Compound | test | system | conditions | scale | measurement | result |
| --- | --- | --- | --- | --- | --- | --- |
| CC(C)NCC(O)c1ccc(O)c(O)c1 (stereo not drawn) | – | ventricular cardiomyocytes, C57BL/6 mouse | dose not given, 0.452 s | – | sarcomere length | 1.69 µm |
| C=Cc1c(C)c2cc3nc(c(CC(=O)O)c4[nH]c(cc5nc(cc1[nH]2)C(C)=C5CC)c(C)c4C(=O)O)[C@@H](CCC(=O)O)[C@@H]3C | flow cytometry | mouse, 4T1 tumour-bearing | dose not given, 1 h | – | CD4+ T cells | 1.86% and 1.53% and 1.48% |
